# Published values pooled from the literature.
# Protocols differ between the studies behind these lines.
Structure (SMILES),test,system,setting,measurement,value
CC[C@H](C)[C@@H]1NC(=O)[C@H](CCCNC(=N)N)NC(=O)[C@H](CC(=O)O)NC(=O)[C@H](CC(C)C)NC(=O)[C@H](CCCCN)NC(=O)[C@H](CC(C)C)NC(=O)CNC(=O)[C@H](Cc2ccccc2)NC(=O)[C@@H](NC(=O)CNC(=O)[C@H](CCCCN)NC(=O)[C@H](CO)NC(=O)[C@H](CC(C)C)NC(=O)CNC(=O)[C@H](CCCCN)NC(=O)[C@H](CCCCN)NC(=O)[C@H](CCC(N)=O)NC(=O)[C@H](C)NC(=O)CNC(=O)[C@H](CCCCN)NC(=O)[C@H](Cc2ccc(O)cc2)NC(=O)[C@H](CCCCN)NC(=O)[C@H](CCCNC(=N)N)NC(=O)[C@H](C)NC(=O)[C@H](CCC(N)=O)NC(=O)[C@@H]2CCCN2C(=O)[C@H](Cc2c[nH]cn2)NC(=O)[C@H](CCC(=O)O)NC(=O)[C@H](CCC(N)=O)NC(=O)[C@@H](N)CC(C)C)CSSC[C@@H](C(=O)O)NC(=O)CNC(=O)[C@H](CC(C)C)NC(=O)CNC(=O)[C@H](CO)NC(=O)[C@H](CCSC)NC(=O)[C@H](CO)NC(=O)CNC1=O,,,"pH 7.4, 37 °C",degradation half-life,~5 months
COC(=O)CCC(C)C1CCC2C3C(O)CC4CC(OC(=O)CCC(=O)OC5OC6OC7(C)CCC8C(C)CCC(C5C)C68OO7)CCC4(C)C3CCC12C (stereo not drawn),HPLC-MS,cell culture medium,"24 h, 37 °C",degradation,≤ 80%
CC[C@H](C)[C@@H]1NC(=O)[C@H](CC(N)=O)NC(=O)[C@@H]2CCCN2C(=O)[C@@H](NC(=O)[C@H](CC(N)=O)NC(=O)[C@@H](N)CCC(N)=O)COC(=O)[C@H](CCSC)NC(=O)[C@H](Cc2c[nH]c3ccccc23)NC(=O)[C@H](CCC(N)=O)NC(=O)CNC(=O)[C@H](Cc2ccccc2)NC1=O,,PBS,"24 h, pH 7.2, 25 °C",degradation,~6%
Cc1cc2c(C(=O)Cc3ccccc3)c(O)c(O)cc2c(O)c1-c1c(C)cc2c(C(=O)Cc3ccccc3)c(O)c(O)cc2c1O,,rat plasma,1 h,degradation,15%
CSCC[C@H](NC(=O)[C@H](CC(C)C)NC(=O)CNC(=O)[C@H](Cc1ccccc1)NC(=O)[C@H](Cc1ccccc1)NC(=O)[C@H](CCC(N)=O)NC(=O)[C@H](CCC(N)=O)NC(=O)[C@@H]1CCCN1C(=O)[C@H](CCCCN)NC(=O)[C@@H]1CCCN1C(=O)[C@@H](N)CCCN=C(N)N)C(N)=O,HPLC,rat mast cell suspension,,degradation time,≤ 30 min
N=C(N)NCCC[C@H](NC(=O)CNC(=O)[C@@H](N)Cc1c[nH]c2ccccc12)C(=O)N1CCC[C@H]1C(=O)O,HPLC,solution,"1 mg/mL, 60 days, 25 °C",degradation,2.33%
CC(C)C12OC1C1OC13C1(C)CCC4=C(COC4=O)C1CC1OC13C2OC(=O)CCC(=O)OC1OC(CO)C(O)C(O)C1O (stereo not drawn),refers to: triptolide succinate,10% human serum in DMEM,"10 µM, room temperature",degradation time,≤ 240 min
CSCC[C@H](NC(=O)CNC(=O)[C@H](CC(=O)O)NC(=O)[C@@H](NC(=O)[C@@H](NC(=O)[C@@H](NC(=O)CNC(=O)[C@H](CCC(=O)O)NC(=O)[C@H](CCSC)NC(=O)[C@H](CC(=O)O)NC(=O)[C@H](C)NC(=O)[C@H](C)NC(=O)[C@@H](NC(=O)[C@H](CO)NC(=O)[C@@H](N)CC(C)C)[C@@H](C)O)C(C)C)C(C)C)[C@@H](C)O)C(=O)N[C@@H](C)C(=O)N[C@@H](CO)C(=O)NCC(=O)N[C@@H](CC(C)C)C(=O)N[C@@H](CC(=O)O)C(=O)N[C@@H](CCCCN)C(=O)N[C@@H](CC(=O)O)C(=O)N[C@@H](Cc1ccc(O)cc1)C(=O)N[C@@H](CC(C)C)C(=O)N[C@@H](CCCCN)C(=O)N1CCC[C@H]1C(=O)N[C@@H](CC(=O)O)C(=O)N[C@@H](CC(=O)O)C(=O)O,,mouse serum,"10 µg/mL, 24 h, 37 °C",degradation,32 to 34%
CC(C)C[C@H](NC(=O)[C@H](Cc1ccccc1)NC(=O)CNC(=O)CNC(=O)[C@@H](N)Cc1ccc(O)cc1)C(=O)N[C@@H](CSCB(O)O)C(N)=O,,PBS,"24 h, pH 7.4, added: H2O2 100 µM",degradation,32%

# Excerpt of the above:
Structure (SMILES),test,system,setting,measurement,value
CC(C)C[C@H](NC(=O)[C@H](Cc1ccccc1)NC(=O)CNC(=O)CNC(=O)[C@@H](N)Cc1ccc(O)cc1)C(=O)N[C@@H](CSCB(O)O)C(N)=O,,PBS,"24 h, pH 7.4, added: H2O2 100 µM",degradation,32%
